Measurements gathered from unrelated publications.
Each line is one published result; not all experiments were run side by side. ± gives the spread as reported.
Cell line: RAW264.7

O=C(O)[C@H]1Cc2c([nH]c3ccccc23)CN1CC1CC1 — inhibition (NO release, inhibitor, Griess; 50 µM, LPS-stimulated): -10.3%
FC(F)(F)Oc1ccc(-c2cc3ccccc3[nH]2)cc1 — viability (sulforhodamine B; 50 µM, 20 h; baseline: vehicle): 106 ± 3.5%
Cc1ccc(C)c(NC(=O)CSc2nnc(-c3ccc(NC(=O)c4cccnc4)cc3)o2)c1 — IC50 (NO release, inhibitor, Griess; LPS-stimulated): 60.2 µM
Clc1ccc2[nH]c(-c3ccccc3)cc2c1 — viability (sulforhodamine B; 50 µM, 20 h; baseline: vehicle): 77.8 ± 2.9%
O=C(CSc1nnc(-c2ccc(NC(=O)c3cccnc3)cc2)o1)Nc1ccc([N+](=O)[O-])cc1 — IC50 (IL-6 release, inhibitor, ELISA; LPS-stimulated): 5.63 µM
Fc1ccc(-c2cc3ccccc3[nH]2)cc1 — inhibition (NO release, inhibitor, Griess; 50 µM, 20 h, LPS-stimulated): 58%
C[C@@H]1C[C@H]2[C@@H]3CCC4=CC(=O)C=C[C@]4(C)[C@@]3(F)[C@@H](O)C[C@]2(C)[C@@]1(O)C(=O)CO — iNOS mRNA fold change (qPCR; 0.5 µM, 1 h pretreatment, together with: LPS 10 ng/mL, 24 h; baseline: LPS alone): 0.98 ± 0.11
CCCCC[C@@H](O)[C@H]1C(=O)O[C@H](C)[C@@H](O)/C=C/C=C/C=C/C=C/C=C(\C)[C@@H](O)C[C@H](O)C[C@H](O)C[C@H](O)C[C@H](O)C[C@H](O)C[C@@H]1O — uptake of TAMRA-GKY25 (endocytosis inhibitor, confocal microscopy; concentration not given, 30 min pre-incubation, 37 °C, together with: TAMRA-GKY25 2 µM for 1 h): inhibited
Cc1ccc(C=Nn2c(-c3ccc(NC(=O)c4cccnc4)cc3)n[nH]c2=S)cc1 — IC50 (TNF-α release, inhibitor, ELISA; LPS-stimulated): 7.73 µM
COc1ccc2cc(-c3cc4ccccc4[nH]3)ccc2c1 — viability (sulforhodamine B; 50 µM, 20 h; baseline: vehicle): 58 ± 7.7%
C=C(C)[C@@H]1CC[C@]2(C(=O)O)CC[C@]3(C)[C@H](CC[C@@H]4[C@@]5(C)CC[C@H](O)C(C)(C)[C@@H]5CC[C@]43C)[C@@H]12 — EC50 (LPS-induced NO production, inhibitor, Griess reaction; 24 h, together with: 100 ng/mL LPS): 14 ± 1 µM
O=C(CSc1nnc(-c2ccc(NC(=O)c3cccnc3)cc2)o1)Nc1ccccc1Cl — IC50 (NO release, inhibitor, Griess; LPS-stimulated): 47.3 µM
Cc1ccccc1-c1cc2ccccc2[nH]1 — inhibition (NO release, inhibitor, Griess; 50 µM, 20 h, LPS-stimulated): 97.5%
O=C(O)Cc1ccccc1Nc1c(Cl)cccc1Cl — IC50 (NO release, inhibitor, Griess; LPS-stimulated): 29 µM
CCN(CC)C(=O)Cc1c(-c2ccc(OCC[18F])cc2)nn2c(C)cc(C)nc12 — maximal uptake (1 h, 37 °C; baseline: added dose): 45.55 ± 0.02%
CC(C)C[C@H](NC(=O)[C@H](CC(C)C)NC(=O)[C@H](CCCCN)NC(=O)[C@H](CC(C)C)NC(=O)[C@@H]1CCCN1C(=O)[C@H](CCCCN)NC(=O)[C@H](CCCCN)NC(=O)[C@H](CC(C)C)NC(=O)[C@H](CC(C)C)NC(=O)[C@H](CCCCN)NC(=O)[C@H](CCCCN)NC(=O)[C@H](Cc1c[nH]c2ccccc12)NC(=O)[C@H](CCCCN)NC(=O)CNC(=O)CNC(=O)CNC(=O)[C@H](CCCNC(=N)N)NC(=O)[C@H](CCCNC(=N)N)NC(=O)[C@H](CCCNC(=N)N)NC(=O)[C@H](CCCNC(=N)N)NC(=O)[C@H](CCCNC(=N)N)NC(=O)[C@H](CCCNC(=N)N)NC(=O)[C@H](CCCNC(=N)N)NC(=O)[C@H](CCCNC(=N)N)NC(=O)[C@@H](N)CCCNC(=N)N)C(=O)N[C@@H](CCCCN)C(=O)N[C@@H](CCCCN)C(N)=O — NO production (2 µM, 24 h, together with: LPS 20 ng/mL): inhibited
c1ccc(C2Cc3ccccc3N2)cc1 (stereo not drawn) — inhibition (NO release, inhibitor, Griess; 50 µM, 20 h, LPS-stimulated): 35%
COC(=O)[C@@H]1Cc2c([nH]c3ccccc23)CN1C(=O)OCC(C)C — inhibition (NO release, inhibitor, Griess; 50 µM, LPS-stimulated): 11.1%
